{"data": "Results of several laboratories", "note": "Every numbered part comes from another study and shows a few of its results, in no order."}
{"data": "Series 1", "target": "Histone acetyltransferase KAT6A, winged helix 1, GST fusion (KAT6A, Homo sapiens, UniProt Q92794, residues 1-85)", "method": "protein binding microarray", "form": "double-stranded DNA, one strand shown", "medium": "in vitro", "tested at": "not given", "setting": "8-mer, flanks averaged, mean of 2 arrays, mostly near background", "relative to": "not given", "reading": "higher = stronger binding", "Target sequence (chain)": "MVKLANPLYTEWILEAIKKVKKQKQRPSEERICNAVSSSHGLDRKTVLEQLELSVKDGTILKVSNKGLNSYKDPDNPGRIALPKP"}
{"Sequence": "CAACACTG", "E-score": -0.138}
{"Sequence": "GCTCCCCA", "E-score": -0.128}
{"Sequence": "AGACTTTG", "E-score": -0.203}
{"Sequence": "CCCTTAAG", "E-score": -0.106}
{"Sequence": "AAAAGGTG", "E-score": -0.181}
{"Sequence": "ACTGGGGC", "E-score": -0.164}
{"Sequence": "ACCAGGGT", "E-score": -0.21}
{"data": "Series 2", "target": "Phosphate system positive regulatory protein PHO4, full length, GST-tagged (PHO4, Saccharomyces cerevisiae, UniProt P07270, residues 1-312)", "method": "competition protein-binding microarray", "form": "double-stranded DNA, one strand shown", "medium": "in vitro", "tested at": "2 µM", "setting": "whole 60-bp probe, lowest competitor level", "added": "Cbf1 competitor, 0.05 µM", "reading": "higher = stronger binding", "Construct (chain)": "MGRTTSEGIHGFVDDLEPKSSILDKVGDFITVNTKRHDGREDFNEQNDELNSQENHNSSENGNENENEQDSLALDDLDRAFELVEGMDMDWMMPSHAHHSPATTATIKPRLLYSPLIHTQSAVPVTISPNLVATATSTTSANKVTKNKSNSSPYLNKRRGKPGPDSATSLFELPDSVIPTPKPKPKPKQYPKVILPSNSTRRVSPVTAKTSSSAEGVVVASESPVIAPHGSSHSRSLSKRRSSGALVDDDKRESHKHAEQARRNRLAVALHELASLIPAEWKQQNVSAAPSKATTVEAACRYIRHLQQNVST"}
{"Sequence": "GTTGGCAGTCTCATCGCCGTGGGTAATCTTGAGTGGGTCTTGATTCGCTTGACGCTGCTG", "fluorescence intensity [a.u.]": 4860}
{"Sequence": "CTAACGAAGGTTTTTCACGTGGTTTACAAGCCAAGTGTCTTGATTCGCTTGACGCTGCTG", "fluorescence intensity [a.u.]": 12700}
{"Sequence": "GTCTGCAAGTTTCTGCCCGTGCTTTTGTGTACCAATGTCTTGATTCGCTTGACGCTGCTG", "fluorescence intensity [a.u.]": 9110}
{"Sequence": "TTTTTCCTAACTTGCGACATGACAGAGCTTAAGGACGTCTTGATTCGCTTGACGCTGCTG", "fluorescence intensity [a.u.]": 4560}
{"Sequence": "TGCGCAACAACTTGTCACATAACTTTATGTCTAGAAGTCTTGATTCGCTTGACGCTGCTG", "fluorescence intensity [a.u.]": 3130}
{"data": "Series 3", "target": "Sal-like protein 4, full length isoform B (SALL4, Homo sapiens, UniProt Q9UJQ4-2, residues 1-616)", "method": "universal PBM", "form": "double-stranded DNA, one strand shown", "medium": "in vitro", "tested at": "not given", "setting": "8-mer, flanks averaged, mean of replicates", "reading": "higher = stronger binding"}
{"Sequence": "CATGAAAC", "E-score": 0.105}
{"Sequence": "CACGTAGG", "E-score": -0.0654}
{"Sequence": "TACTGCGA", "E-score": 0.0277}
{"Sequence": "AACGCCTC", "E-score": -0.203}
{"Sequence": "ACGCGGAT", "E-score": -0.129}
{"data": "Further values, each from its own experiment"}
{"Molecule": "PhoQ, residues 284 288 289 292 302 303 TLASMF", "target": "PhoP, residues 12 14 15 18 19 IFFTR (Escherichia coli, UniProt P23836)", "test": "Sort-seq, measured: YFP reporter", "test system": "E. coli", "setting": "PhoQ-PhoP variant library, added: 10 µM Mg2+", "scale": "relative to: high Mg2+ state, higher = stronger signaling", "endpoint": "fold induction", "value": 2.68}
{"note": "Repeated from above (series 1):"}
{"Sequence": "GCTCCCCA", "E-score": -0.128}
{"Sequence": "AGACTTTG", "E-score": -0.203}
{"Sequence": "CCCTTAAG", "E-score": -0.106}
